Measurements from different studies.
Numbered parts are unrelated; each lists some results of a single study. Changes are numbered by the printed parent chain.

Sample 1
Target: ABI1, truncated, D143A, DHFR fusion (Arabidopsis thaliana)
Method: DHFR PCA, deep sequencing
Medium: yeast
Setting: methotrexate growth selection, single substitutions
Added: (+)-ABA 0.0091 µM
Relative to: wild-type fitted maximum
Reading: higher = stronger binding
Parent: PYL1, truncated, DHFR fusion (Arabidopsis thaliana); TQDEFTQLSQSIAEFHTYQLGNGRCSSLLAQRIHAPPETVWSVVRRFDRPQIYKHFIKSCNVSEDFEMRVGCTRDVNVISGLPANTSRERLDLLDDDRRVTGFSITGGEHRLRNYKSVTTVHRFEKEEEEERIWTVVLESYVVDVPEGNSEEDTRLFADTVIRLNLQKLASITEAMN; partner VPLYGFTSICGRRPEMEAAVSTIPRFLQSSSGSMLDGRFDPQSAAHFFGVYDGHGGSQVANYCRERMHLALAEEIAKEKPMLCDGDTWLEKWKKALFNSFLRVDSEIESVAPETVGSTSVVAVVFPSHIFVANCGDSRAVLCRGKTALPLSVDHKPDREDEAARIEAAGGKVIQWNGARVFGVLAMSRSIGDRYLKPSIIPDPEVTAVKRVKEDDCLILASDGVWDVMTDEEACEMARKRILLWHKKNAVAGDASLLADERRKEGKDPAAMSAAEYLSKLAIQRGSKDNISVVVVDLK
Substitution | relative binding score [%]
L91S | 1.56
N177P | 30.7
I133D | 52.1
L93K | -1.37
S11A | 56
C25Y | 0.939
L91C | -3.17
K116M | -5.05
R99G | -7.87
C60H | -5.86
H122F | -11
L8T | 3.06
E130N | 28.1
N165R | 1.3
Q2G | 7.27
F47I | 2.4
V136S | -3.68
L8D | -7.6
H122R | 0.253
H122K | 1.12
W134K | 1.5
S150D | 17.1
E139R | 0.578

Sample 2
Target: CCND1, cyclin fold, Cln2 fusion (human)
Method: yeast growth competition, sequencing
Medium: yeast
Setting: weak parent motif
Relative to: not given
Reading: higher = stronger binding
Parent: GMNC docking peptide (human); KNAKRNLSSEFAN
Substitution | normalised enrichment score
S8I | 0.45
E10V | 0.363
F11P | -0.288
K4S | 0.162
K4G | 0.206
A12E | 1.37
F11G | 0.118
A12V | 0.153
R5D | 0.0142
R5V | -0.0403
N2M | 0.34
F11I | -0.0398
S9W | 0.59
L7R | -0.00616
S9P | 0.528
L7E | 0.0188

Sample 3
Target: RNA binding protein fox-1 homolog 2, RRM domain, GST-SBP tag (RBFOX2, Homo sapiens, UniProt O43251-10, residues 100-194)
Method: RNA Bind-n-Seq
Molecule type: RNA
Medium: in vitro
Concentration: 365 nM
Setting: natural RNA segment, single round, ends assumed
Relative to: no-protein control
Reading: higher = stronger binding
Construct (chain): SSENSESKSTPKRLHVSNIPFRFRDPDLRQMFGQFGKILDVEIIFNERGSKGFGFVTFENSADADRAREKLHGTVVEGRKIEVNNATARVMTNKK
Sequence | RBNS enrichment (R)
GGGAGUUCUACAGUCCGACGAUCAUCUGAAUAGUGUGCUGGCGGGAGUGGUUUGUCGGAGCAGCCACACUGAUUCGGUGUUUUUGCAGUGCAUUCAACUUCUACAGAAGUUAACAUAUAAUGUCAAAAUUUUCUGGAAUUCUCGGGUGCCAA | 0.742
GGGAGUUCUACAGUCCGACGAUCUGGAGCUGGCUCCCGGACCUUGCCCACCAUCCAUGCAGUGGCUCCCAGGGCAGAGCCUCUCCUUGUACUUUGGCAGCCAUAGAAAGCGUGCUCAUUUUCUGUUUUCCUGUUGGAAUUCUCGGGUGCCAA | 0.922
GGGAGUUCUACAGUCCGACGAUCCAAGCUGAGCUGCUAGGGAAUCAAGGUGAACUAGACCCGUCCUCAGGCCUCUGGCACCUGUUUCUAGCUCUCACUUCUACGGCAUGCUGUCCAAGGAACCAAAGGAGGCUUGGAAUUCUCGGGUGCCAA | 0.439
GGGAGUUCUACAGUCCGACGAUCCCUAUUAAAGACAAAACUGGCUGCUUCUGAGCUCUUUCAGGCUGUACUUUGUGCUGUGCCAGUGGCUCUGCCCAGGCUCCGCCAUCCCUUUACUGGAGUUCAUUGGUCAGUGGAAUUCUCGGGUGCCAA | 0.231
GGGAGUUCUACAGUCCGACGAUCAGAACUGGUCACAUGGGUUUGGAAUCUUUGAUUUCCCCUGUAUGAAUUGUACUGGCUGUUGACCACCAGACACCUGACUGCAAAUAUCUUUUCUUGUAUUCCCAUAUUUCUGGAAUUCUCGGGUGCCAA | 0.341
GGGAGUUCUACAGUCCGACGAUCUUACCAGUGGUCGAUGGCCUGGUCAGUCCUGUGCCGGGUGACUUAGGACCAGGCACGUCAGCUCUCUGAGCCUCCCCUUCCCUUGUUGUCACAAGGGAAUAGAAGCAGAAUGGAAUUCUCGGGUGCCAA | 0.479
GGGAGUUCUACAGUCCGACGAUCAUUCCCAGCAAGUCAGUGUCUCACAAGGGCACUGGCUAAUUACUCUUCUGUCCGCGUUGCUGAUGUCCUGUCCCCAGCCCCUGUCCAUCUCCCCCACACUCCCAUCACCUUGGAAUUCUCGGGUGCCAA | 0.557
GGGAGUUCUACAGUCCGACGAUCGCAGGCAGCAAAACACCAAAUCACAACGCUUUGCUUCUCGACAUCAUGGGCCAGGUCCUCAGUUUCUAACUCUUUCCCUUCCCCACAGUUCGUUGUCGCCAUGCGGCUUUUGGAAUUCUCGGGUGCCAA | 0.297
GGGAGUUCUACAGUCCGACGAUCCACUGGCUAAUAGAGUACAUAAUUUUUCCAUUUUCCAUUUUUUGUUUUUACUUACUACUGAAGGAUCUCAGAUGUAAAAUUAUGUAUUUGGUUUGAGAUGGCCACUUAUUUGGAAUUCUCGGGUGCCAA | 0.582
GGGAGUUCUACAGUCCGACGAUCAGUACAGUUCAAGUGAAUCUGGAUAAUUGUUCAUCUUUGCUUUAGCUUAGAUACCAUGUAGUGGUCUGUGGCUACAGGAAGCUGGUUCUGUCUGCUUCCACAGUCUGCUUUGGAAUUCUCGGGUGCCAA | 0.232
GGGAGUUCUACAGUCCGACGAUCUAUAAUGAAAAGAGGAAGAAGUUUGAGAAAAAGACUGAAUAAUAUCUCACGUAAACCUUCCUGAAAGAUAAACGUUUUCCUGAAUUCAGAAACUAGUAGCUAACAUUGCUUGGAAUUCUCGGGUGCCAA | 0.579
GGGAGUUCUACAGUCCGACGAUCACUAGAUCUCAGAAGUUUUGAAAAAUAGCAAAGAAGACUGGAUUUGGAAAGCAUGGUCUACAAUUGGUUGUUAAAUUCUGAAGCUAUGAAGAAUAAAUGUUUCAACUUUGUGGAAUUCUCGGGUGCCAA | 24.8

Sample 4
Target: Histone acetyltransferase KAT6A, both winged helices, GST fusion (KAT6A, Homo sapiens, UniProt Q92794, residues 1-181)
Method: protein binding microarray
Molecule type: double-stranded DNA, one strand shown
Medium: in vitro
Concentration: not given
Setting: 8-mer, flanks averaged, mean of 2 arrays, mostly near background
Relative to: not given
Reading: higher = stronger binding
Target sequence (chain): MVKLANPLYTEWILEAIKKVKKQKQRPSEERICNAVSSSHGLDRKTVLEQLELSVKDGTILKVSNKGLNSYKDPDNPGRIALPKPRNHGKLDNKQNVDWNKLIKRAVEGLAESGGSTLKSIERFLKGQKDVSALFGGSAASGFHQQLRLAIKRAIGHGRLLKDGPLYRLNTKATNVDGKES
Sequence | E-score
GGACTCGA | -0.0683
CTGTCGCA | 0.0701
CCACGGTC | 0.0461
TCGTGAGA | 0.0576
AGGCCGAA | -0.0473
AAGTTCCC | 0.0609
CATACAAA | 0.0574
AGGTAGGC | -0.23
AACAGGAA | -0.0479
CAACGACG | 0.0999
CATCGTGC | -0.0712
CAATGTAA | 0.0354
CACTATGG | -0.156
CGCCTGCC | 0.145
TAGTTCCA | -0.0389
AGAAACTG | -0.0162
AGCATCTA | -0.08
TAAGGAAA | -0.231
ACTTGAGA | -0.103
CCTTTCCA | -0.0456
AGCCGGGC | 0.104
GGCAGCGA | 0.103
ATCCTCAG | -0.139
ACGAACCA | 0.0104

Other studies, line by line
Substance | target | test | system | setting | scale | measurement | value
PhoQ, residues 284 288 289 292 302 303 GLASVI | PhoP, residues 12 14 15 18 19 LWHVM (Escherichia coli, UniProt P23836) | Sort-seq, item: YFP reporter | E. coli | PhoQ-PhoP variant library, added: 10 µM Mg2+ | relative to: high Mg2+ state, higher = stronger signaling | fold induction | 9.14
